{"data": "Experimental data pooled from the literature", "note": "Every numbered part comes from another study and shows a few of its results, in no order."}
{"data": "Sample 1", "target": "RING finger protein unkempt homolog, zinc fingers 1-6, GST-SBP tag (UNK, Homo sapiens, UniProt Q9C0B0, residues 30-357)", "technique": "RNA Bind-n-Seq", "form": "RNA", "medium": "in vitro", "tested at": "not given", "setting": "RNA with constant flanks, ends assumed", "relative to": "input RNA pool", "direction": "higher = stronger binding", "sequence of UniProt Q9C0B0 (30-357, looked up)": "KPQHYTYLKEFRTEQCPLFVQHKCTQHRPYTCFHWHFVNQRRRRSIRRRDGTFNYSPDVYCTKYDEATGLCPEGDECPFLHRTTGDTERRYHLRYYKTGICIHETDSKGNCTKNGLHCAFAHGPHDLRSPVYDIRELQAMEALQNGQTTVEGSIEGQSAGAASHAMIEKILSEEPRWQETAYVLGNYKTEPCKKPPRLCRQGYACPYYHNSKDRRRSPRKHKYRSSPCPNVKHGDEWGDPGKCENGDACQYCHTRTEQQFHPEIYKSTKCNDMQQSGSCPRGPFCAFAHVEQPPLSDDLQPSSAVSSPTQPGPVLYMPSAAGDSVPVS"}
{"Oligonucleotide": "GGGAGUUCUACAGUCCGACGAUCAAGGUCUUUAAUGUUGCCAUCCCCCGAUUCCACAUGGCAUGUCCAACAUUCAGGGUGUCUACCGCUCGAUUGGAAAUGGGUCCUGAUGAAUAUGAAGAGAUGGAGGAGGAAGCUGAGGAGCAACAGAGGAUUGAGCAUCA", "bound/input enrichment": "0.14 ratio"}
{"Oligonucleotide": "GGGAGUUCUACAGUCCGACGAUCGGAGAUGGUCCUAUGUGUCGCCCAGAAAUUGUGUUACCAGGAGAAGACACACAUCCCUUCUCCGAGUUUAAAGGGUCACGACAUCCCUGCAUUACAAAGACUUUUUUUGGAGACGAUUUUCAACAGAGGAUUGAGCAUCA", "bound/input enrichment": "0.141 ratio"}
{"Oligonucleotide": "GGGAGUUCUACAGUCCGACGAUCGUUGGUACUUCUGUAAAAACCUUAGUAUUAGCAUACAGCUCUGCAGUUUCCAGCAAAAUGGUCCGGCAGAUUUUAGAGCUUUGUCCUAACCUGGAGCAUCUGGAUCUUACCCAGACUGACCAACAGAGGAUUGAGCAUCA", "bound/input enrichment": "18.7 ratio"}
{"data": "Sample 2", "target": "PABPC1L2, full length, GST fusion (mouse, UniProt A0ABA7IW68)", "technique": "RNAcompete", "form": "RNA", "medium": "in vitro", "tested at": "20 nM", "setting": "7-mer, probes averaged, single round", "relative to": "mean of 7-mers", "direction": "higher = stronger binding"}
{"Oligonucleotide": "CUACGUG", "7-mer Z-score": -0.132}
{"Oligonucleotide": "CUACAUC", "7-mer Z-score": -0.273}
{"Oligonucleotide": "GGGCUGC", "7-mer Z-score": 0.149}
{"Oligonucleotide": "CCUCUAC", "7-mer Z-score": -0.356}
{"Oligonucleotide": "AAGGAUG", "7-mer Z-score": 0.314}
{"Oligonucleotide": "GGCGGAA", "7-mer Z-score": 0.686}
{"Oligonucleotide": "UAGGUGG", "7-mer Z-score": -0.0101}
{"data": "Sample 3", "target": "Histone acetyltransferase KAT6A, winged helix 2, GST fusion (KAT6A, Homo sapiens, UniProt Q92794, residues 85-181)", "technique": "protein binding microarray", "form": "double-stranded DNA, one strand shown", "medium": "in vitro", "tested at": "not given", "setting": "8-mer, flanks averaged, mean of 2 arrays, mostly near background", "relative to": "not given", "direction": "higher = stronger binding", "Target sequence (chain)": "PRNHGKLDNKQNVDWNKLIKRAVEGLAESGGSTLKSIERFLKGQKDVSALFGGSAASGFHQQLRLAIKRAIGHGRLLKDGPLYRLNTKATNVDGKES"}
{"Oligonucleotide": "TTCGAGAA", "E-score": -0.01}
{"Oligonucleotide": "CCTGTTCA", "E-score": 0.0192}
{"Oligonucleotide": "ATCCCTGC", "E-score": -0.0321}
{"Oligonucleotide": "AATTCAGG", "E-score": 0.105}
{"Oligonucleotide": "GCGAGCTA", "E-score": 0.0533}
{"Oligonucleotide": "AGGCGAAG", "E-score": 0.0674}
{"Oligonucleotide": "GACCGCTA", "E-score": 0.088}
{"data": "Further values, each from its own experiment"}
{"Substance": "PhoQ, residues 284 288 289 292 302 303 SIHLQL", "target": "PhoP, residues 12 14 15 18 19 IFFTR (Escherichia coli, UniProt P23836)", "assay": "Sort-seq, item: YFP reporter", "system": "E. coli", "setting": "PhoQ-PhoP variant library, with: 10 µM Mg2+", "scale": "relative to: high Mg2+ state, higher = stronger signaling", "quantity": "fold induction", "value": 2.02}
{"note": "Repeated from above (sample 2):"}
{"Oligonucleotide": "CCUCUAC", "7-mer Z-score": -0.356}
